Published values of several laboratories.
Parts stem from different laboratories: compare values within a part only.

Study 1
Target: RING finger protein unkempt homolog, zinc fingers 1-6, GST-SBP tag (UNK, Homo sapiens, UniProt Q9C0B0, residues 30-357)
Technique: RNA Bind-n-Seq
Form: RNA
Medium: in vitro
Tested at: not given
Notes: RNA with constant flanks, ends assumed
Baseline: input RNA pool
Direction: higher = stronger binding
Target sequence (chain): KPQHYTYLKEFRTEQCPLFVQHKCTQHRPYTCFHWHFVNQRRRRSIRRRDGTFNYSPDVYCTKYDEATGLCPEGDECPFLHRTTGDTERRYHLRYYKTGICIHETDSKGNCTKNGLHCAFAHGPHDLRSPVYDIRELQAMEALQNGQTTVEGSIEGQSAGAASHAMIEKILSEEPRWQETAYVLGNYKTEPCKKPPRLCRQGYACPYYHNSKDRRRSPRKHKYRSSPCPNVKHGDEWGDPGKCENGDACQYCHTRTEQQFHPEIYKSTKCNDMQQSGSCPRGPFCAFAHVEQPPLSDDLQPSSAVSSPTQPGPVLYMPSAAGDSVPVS
| Strand | bound/input enrichment [ratio] |
| --- | --- |
| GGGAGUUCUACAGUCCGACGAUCGAUCGUCAAUCGAUGUAGGAGGGCAGUGGUCUUGGGUUGAGUCAGAAAGCCUGGGAGGAAACCCGAGAGGAAGCCAGCCAGGACGUGACACUCCUUCAUGGUGUCUGCUUCAGCUCCUACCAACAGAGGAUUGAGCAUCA | 0.0822 |
| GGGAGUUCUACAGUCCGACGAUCUUUAAAACAAAAAAUAUAUUAAUUUACAUAUAAGGGGAUUUAUGAUAAUUGUAUUAUAUCCCGUUGAGUUUCAUAUUCUUAAUUAGCCUGUAAAUAAAAAUGACAUAUUCUACAUUAAAGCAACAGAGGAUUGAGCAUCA | 2.34 |
| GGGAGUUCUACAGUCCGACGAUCCUUUGUAUAUAUUUUUUUGUGUACAUGCACACAUCUCGAAAUCCAUUUCCGUGUUUAAUGUCCGUUGUUUAUGUGUUAGUAUUCCUGUGUCUACUGUUUUGUUGUUGUUAAUAUGGGUAACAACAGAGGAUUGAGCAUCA | 0.707 |
| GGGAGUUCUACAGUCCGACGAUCCAGCGCCGAGGCCGCGGUUUCCCCCUGGGCCUCCCCAGCAGCAGCCAUGGGCAUCAAAUUUUCCGAAGUUAUCAAACCAUUCUGUGCAGUUCUACCAGAAAUUCAGAAACCGGAAAGGAACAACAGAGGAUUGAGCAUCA | 0.292 |
| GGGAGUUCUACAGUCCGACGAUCGUAGAAUUUAUUUUGUCUUUUAUUGAUCACAUUGCUGGAGAUGAGGAUCAUACGGACGGAGUGGCCGCCUGUGCUGCUGGUCUGAUAGGGGACUUGUGUACAGCCUUCGGGAAGGAUGUACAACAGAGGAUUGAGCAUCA | 1.62 |
| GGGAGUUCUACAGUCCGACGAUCCUAAAGGCAGAAAACCUGCUCCUGGAUGCUGAUAUGAACAUCAAGAUUGCAGACUUUGGCUUCCGCAACGAAUUCACCUUUGGGAACAAGCUGGAUACUUUCUGUGGCAGUCCUCCUUAUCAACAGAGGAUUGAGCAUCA | 0.0984 |
| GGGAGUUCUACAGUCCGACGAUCUCAUUUUUUGCUGGGGAUAAAAAAGAAGCACACAAACUAAAGGAGGACUUUCGACUGCAUUUCCGAAAUAUUUCAAGAAUUAUGGAUUGUGUUGGUUGUUUUAAAUGUCGUCUGUGGGGACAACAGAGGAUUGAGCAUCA | 0.739 |
| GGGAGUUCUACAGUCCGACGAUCUCCCCUCAAGCACCAACACACUUUCUGGUGAUACCCAAGAAGCAUAUAUCCCAGAUUUCUGCCGCAGAUGAUGAUGAUGAAAGUCUUCUAGGACAUUUAAUGAUUGUUGGCAAGAAAUGUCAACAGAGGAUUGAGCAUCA | 0.34 |
| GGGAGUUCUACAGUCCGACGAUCUGUGAUCAUGCCAAUCCACAGCUUUCAAAUCCAAGCCCUUUUCAGACACUUGGGCUGGACUCCGUUUUGGAAUGUGUUGCUAGGUACCAGCCUAAGCAGCGUUCAAUGUUUACCUUUGUACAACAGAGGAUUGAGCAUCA | 0.171 |
| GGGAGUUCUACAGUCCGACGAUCGCACAGCAGUUGUACAGCAGGGGUCCUCCUGCCCCUCAUAUUGUGGGAUCCACUCCCGGAUCUUUCCAAGGUGCUGCAUCGUCAGCAUCCCAUUUGCAUACGAGUGCCUCCCAACCAUACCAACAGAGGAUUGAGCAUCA | 0.233 |
| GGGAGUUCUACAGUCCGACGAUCUUUGUAAAAUUGUCCUAAUCUUUCCUAGCUUUUUAAUAGUUAAUAUUAGAAACUCUUUAACCGUUUUCCUUUCAGUUUGUGAGCUCUUCUCUGUCGCCCUGAAGGGUCACUGUAUUCUGUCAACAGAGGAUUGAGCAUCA | 18.2 |

Study 2
Target: Fragile X messenger ribonucleoprotein 1, C-terminal low-complexity region (Fmr1, Mus musculus, UniProt P35922)
Technique: RNA Bind-n-Seq
Form: RNA
Medium: in vitro
Tested at: 200 nM
Notes: whole 134-nt RNA, ends assumed
Together with: 150 mM KCl
Baseline: input library
Direction: higher = stronger binding
| Strand | log2 enrichment |
| --- | --- |
| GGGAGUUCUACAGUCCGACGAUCCACAUACAACACGCACCCACACAGACACAGAGGGAAGGGGUUGGGAUGGGGACAGGGUGCACAGCAGGGCGGGGUAGGACCCCAGCCCCUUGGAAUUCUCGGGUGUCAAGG | 1.32 |
| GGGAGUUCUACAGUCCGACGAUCAGUCCUGUGCUACACAUCGUAUGUACCGAAUCGGGGUGGGGUGGGGUUUUUUUGGGGAAAGUAUUAUGUUACGCCGUUCGGAUCUGCACUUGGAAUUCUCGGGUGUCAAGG | 1.08 |
| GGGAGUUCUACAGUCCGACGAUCUGUGCUACACAUCGUAUGUACCGAAUCGGGGUUUUUUUGGGGUUUUUUUGGUUUUUUUGGGGAAAGUAUUAUGUUACGCCGUUCGGAUCUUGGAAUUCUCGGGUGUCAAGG | 0.156 |
| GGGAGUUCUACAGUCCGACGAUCUGGGAGGUGGAUUUUGUUUAUUUUUUUAGCUCAUUUCCAGGGGUGGGAAUUUUUUUUUAAUAUGUGUCAUGAAUAAAGUUGUUUUCGAAAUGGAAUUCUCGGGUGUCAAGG | 0.483 |
| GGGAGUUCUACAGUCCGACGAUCGAUUCCCUCCACAUGCUGCACGCGCAUCUCGCCCCCAGGGGCACUGCCUGGAAGAUUCAGGAGCCUGGGCGGCCUUCGCUUACUCUCACCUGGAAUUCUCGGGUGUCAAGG | 0.95 |
| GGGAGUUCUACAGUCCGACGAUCGACAGACAACACGCACCCACACAGACACAGAGGGAAGGGGUUGGGAUGGGGACAGGGUGCACAGCAGGGCGGGGUAGGACCCCAGCCCCUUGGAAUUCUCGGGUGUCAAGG | 1.28 |
| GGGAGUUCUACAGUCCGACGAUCCAAGUCCUGUGCUACACAUCGUAUGUACCGAAUCGGGAAAAAGGGAAAGGGAGGGAAAGUAUUAUGUUACGCCGUUCGGAUCUGCACUUCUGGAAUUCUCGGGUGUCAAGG | 0.649 |
| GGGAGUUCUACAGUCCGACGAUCCUGUGCUACACAUCGUAUGUACCGAAUCGGGAAAAAAAGGGAAAAAAAGGGGAAAAAAAGGAAAGUAUUAUGUUACGCCGUUCGGAUCUGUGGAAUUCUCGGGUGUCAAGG | -0.73 |
| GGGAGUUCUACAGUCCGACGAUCAAGUCCUGUGCUACACAUCGUAUGUACCGAAUCGGGUGGGUUUUUGGGUUUUUGGGAAAGUAUUAUGUUACGCCGUUCGGAUCUGCACUUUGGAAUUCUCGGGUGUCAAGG | 0.486 |
| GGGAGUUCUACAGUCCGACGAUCUUGUGGGAGGAUUUUGAGAUACUUAUUCUUUAUUUGAGCCAGUCUUGCAAGGUUAACUUCUCACUGGGCCUAGUGUGGUGCCCAGGUUUUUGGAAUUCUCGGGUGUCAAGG | -1.47 |

Study 3
Target: RNA binding protein fox-1 homolog 2, RRM domain, GST-SBP tag (RBFOX2, Homo sapiens, UniProt O43251-10, residues 100-194)
Technique: RNA Bind-n-Seq
Form: RNA
Medium: in vitro
Tested at: 365 nM
Notes: natural RNA segment, single round, ends assumed
Baseline: no-protein control
Direction: higher = stronger binding
Residues (chain): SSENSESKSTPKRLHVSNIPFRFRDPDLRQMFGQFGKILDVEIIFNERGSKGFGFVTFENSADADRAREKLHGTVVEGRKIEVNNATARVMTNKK
| Strand | RBNS enrichment (R) |
| --- | --- |
| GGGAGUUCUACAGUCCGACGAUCAAUCUUAAAGGAAUAAAGCACUGAAUUGGGACUAACAUUCUGAUAGGUUGCACCCUUAAGAGUAUUCAGAGAGCAUCAAAAGGAGCCCACACCUUCAGCAGUGAAGGAUUUGGAAUUCUCGGGUGCCAA | 0.217 |
| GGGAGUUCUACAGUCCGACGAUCGAAUAAUGUUUACAUUGGUCCCUGAGGACAUGUGUGCUCAGACAUUCAAGAGCUAGGAGGCCAGAGAGAAGACCUUCAGAAAACGGUAAGUUAAAGAAGACAAGUGUCAUUGGAAUUCUCGGGUGCCAA | 0.41 |
| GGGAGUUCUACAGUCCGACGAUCGUACUUUCUGUGGCGUGACCAAUCUUUACUGUUUUUCUAACUACAGAUGUAUGAACAUCCUUGGAGUGCCCACCCAGCACCCAGUGUUGAGUAUUAACCUUACAUUUUACUGGAAUUCUCGGGUGCCAA | 0.208 |
| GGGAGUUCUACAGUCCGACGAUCCAAUGUAGCAACUUCGCUGGCGCCUGCCCCGCACUCCCCGUCCCGUCCACUUCUGAAACUCCUGUUCCUAAUGACAAAGUGGCUAUGUGCAAUGGAUAUAAAUGUACUGUUGGAAUUCUCGGGUGCCAA | 0.591 |
| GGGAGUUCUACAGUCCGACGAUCGGGUCAACAGUUCCUUUGCCAGCAGCAUCUCCUAAAUUGUAAGGACUCUGUCCACCGGGGCCCUCCCAGGGCUGUGAGGACGGAAACAGGCAGGGAGUGGAGCUAACAGCUGGAAUUCUCGGGUGCCAA | 0.402 |
| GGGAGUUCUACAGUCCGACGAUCAAGGAGCUGCCUUAAAUGGCCCAGUGUGUGCUGCUGCCGCCCGGCCACGGCCCACCCUGGUCAGGCUGCCUCCUUAAUCGAGAAAACUACCUGGUGAUGCAAUCUUUUUUUGGAAUUCUCGGGUGCCAA | 0.343 |
| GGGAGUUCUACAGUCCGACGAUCGCCCUGAAGUGGGGGUGCGGGAAUGGGGAGGCUUCCCCUUUAGUGACUCAUGUCCCAGGUCUAAGAAAUCUAAAGUGGACUGAGGCAGGCUCCCUUGUGUGUCCCUAUACUGGAAUUCUCGGGUGCCAA | 0.407 |
| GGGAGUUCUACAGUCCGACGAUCUUCUAAACUUAUAUAAUGACCUGAUUUUCUUUCUUGCAAUUUUUCCCCCUUUUUAAUUGAGAGGAUCGUUCGAAUGAGCCUCUGUGGCCUCUCCUUAGAGGCCUUCACAAUGGAAUUCUCGGGUGCCAA | 0.702 |
| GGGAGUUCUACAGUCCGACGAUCACCUGUGUGUUCUUUUGAUACAUUUAUCUUCUGUUUUUCUCAAAUAAAGUUCAAAGCAACCACCUGUCACUGGCCCAGGCCCUGGUGUUUGUGGAAGGAAGCCUCAGGCAUGGAAUUCUCGGGUGCCAA | 0.248 |
| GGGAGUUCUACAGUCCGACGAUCAAAGAUGCUUUAAAUUAAAUUUGGGUAAUAUUAAACCACAUGUUUACAAUACCAAAAUCCACAAAAGCUACUUUAUUUUCAAAUAUGACAGAUAGUUUCCAGAGUACGCCUGGAAUUCUCGGGUGCCAA | 0.39 |
| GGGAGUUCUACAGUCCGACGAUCCUUGUAUAAAAAGUUGCCAUCUGCCUUAUAGACAAAUGUAGAGAAUUGAUGUUCUUGCUUUGUGUUGUGUUCUGGUAAAGCUUUAAGUGAGUGUCUUACCCCUUUCCUAUUGGAAUUCUCGGGUGCCAA | 0.421 |
| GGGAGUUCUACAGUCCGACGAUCUUUUUUUGCUUUGUUUUGUUUGUGCUAAUUUGGGAAUUGUGUACUCCGAAACAAGUAGAAAAGUGCUGUUUGAGGGAUUUUAUUAAAUCUUUUUUUAAUGGAAUGUGGUAUGGAAUUCUCGGGUGCCAA | 0.639 |

Study 4
Target: Sal-like protein 4, full length isoform A (SALL4, Homo sapiens, UniProt Q9UJQ4, residues 1-1053)
UniProt Q9UJQ4, sequence (whole entry, looked up): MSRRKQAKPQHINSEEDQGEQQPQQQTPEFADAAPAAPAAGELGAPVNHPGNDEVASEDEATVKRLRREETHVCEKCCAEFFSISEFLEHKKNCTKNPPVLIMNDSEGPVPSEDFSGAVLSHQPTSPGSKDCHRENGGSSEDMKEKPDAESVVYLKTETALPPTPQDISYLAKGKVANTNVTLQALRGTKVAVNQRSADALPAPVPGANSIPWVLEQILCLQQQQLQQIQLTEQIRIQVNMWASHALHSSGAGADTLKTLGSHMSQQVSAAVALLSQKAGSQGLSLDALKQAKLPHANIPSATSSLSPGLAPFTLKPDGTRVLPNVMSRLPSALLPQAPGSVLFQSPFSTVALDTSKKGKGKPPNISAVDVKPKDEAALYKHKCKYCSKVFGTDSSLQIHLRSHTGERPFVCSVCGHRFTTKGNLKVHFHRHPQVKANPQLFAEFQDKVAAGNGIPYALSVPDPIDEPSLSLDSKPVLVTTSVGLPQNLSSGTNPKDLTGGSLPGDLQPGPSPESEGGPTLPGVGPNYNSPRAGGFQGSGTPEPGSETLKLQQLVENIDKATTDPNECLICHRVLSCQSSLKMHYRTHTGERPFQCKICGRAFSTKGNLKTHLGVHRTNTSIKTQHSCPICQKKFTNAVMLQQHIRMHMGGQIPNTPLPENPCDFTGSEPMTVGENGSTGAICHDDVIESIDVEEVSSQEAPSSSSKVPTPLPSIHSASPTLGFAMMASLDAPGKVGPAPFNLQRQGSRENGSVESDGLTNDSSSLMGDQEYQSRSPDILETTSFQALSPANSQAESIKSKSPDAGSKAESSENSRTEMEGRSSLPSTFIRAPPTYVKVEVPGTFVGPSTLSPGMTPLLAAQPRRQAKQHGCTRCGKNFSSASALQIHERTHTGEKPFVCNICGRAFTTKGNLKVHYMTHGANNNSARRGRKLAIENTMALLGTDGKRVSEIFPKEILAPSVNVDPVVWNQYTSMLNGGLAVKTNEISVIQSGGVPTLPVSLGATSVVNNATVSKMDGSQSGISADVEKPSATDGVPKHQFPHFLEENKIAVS
Technique: universal PBM
Form: double-stranded DNA, one strand shown
Medium: in vitro
Tested at: 600 nM
Notes: 8-mer, flanks averaged, mean of replicates
Direction: higher = stronger binding
| Strand | E-score |
| --- | --- |
| CTGGCTCA | -0.133 |
| ACGTCACG | -0.0655 |
| AGCGCTGC | -0.231 |
| AAGTTAGT | 0.128 |
| GGTGATGA | 0.0387 |
| CCTTCTCA | -0.00535 |
| CAGTGCAG | -0.254 |
| ACTTTAAA | 0.334 |
| CCGCAGAA | -0.0834 |
| ATGTTCCG | -0.0524 |
| TCAACTCA | 0.0448 |
| GCGCATAA | 0.18 |
| CAGACATG | 0.155 |
| ACCTGCCG | -0.304 |
| GCAGGGAC | -0.26 |
| CGCCATCA | -0.095 |
| ACGGCGCT | -0.359 |
| AGTAACAA | 0.161 |
| GCGCATCC | -0.254 |
| CGTGTGAA | -0.0272 |
| GCATCGGC | -0.272 |
| CGCCCTGC | -0.318 |
| ACCGGCTA | -0.151 |
| AACGAGTA | 0.168 |
| AACTCAGG | -0.0759 |
